Published values collected from several papers.
Lines come from different studies, so protocols differ. “And” joins repeats or separate records; there may be more than shown. ± gives the spread as reported. ≈ marks a conversion by molar mass, not a printed value.

`CC(C)CC(C(=O)N1CC2(CC1C#N)C(=O)Nc1ccccc12)N(C)C(=O)c1cc2c(F)cc(F)c(F)c2[nH]1` (stereo not drawn) has an inhibition of 100% (SARS-CoV-2; viral replication, infectious virus; Vero E6; 0.37 µM).
`COC(=O)c1ncn(CCOP(=O)(O)O)c1C(=O)OC` gave an IC50 of 32 µg/mL (Severe acute respiratory syndrome coronavirus; viral replication; Vero; 48 h).
For `C[N+]1=C2C(c3ccc(Cl)cc3)=[N+]([O-])c3ccccc3N2CCC1`, the MIC50 was 32 µg/mL (Clostridium perfringens; microbial growth).
`O=[N+]([O-])c1ccc(-n2nc(-c3ccccc3)cc2-c2ccc(F)cc2)c([N+](=O)[O-])c1` — result for “viral RNA reduction”: ~33% (Japanese encephalitis virus; SA14-14-2, BALB/c mice, brain; ip, 100 mg/kg/day; relative to: untreated).
With `Cc1ccc(NS(=O)(=O)c2c(C(=O)N3CCCCCC3)c(C)n(C)c2C)c(Cl)c1` the infection was 0.826% and 0.573% and 0.484% (Vaccinia virus; viral infection; HaCaT; 33.33 µM, 36 h; relative to: untreated).
`O=[N+]([O-])c1ccc(-n2nc(-c3ccc(F)cc3)cc2-c2ccc(F)cc2)c([N+](=O)[O-])c1`: “NS1 protein reduction” > 95% (Japanese encephalitis virus; western blot; Neuro2a; 15 µM, 72 h).
The MIC of `COc1ccc(C2=[N+]([O-])c3ccccc3N3CCN=C23)cc1` is reported as ≤ 0.06 µg/mL (Clostridium butyricum).
With `N#Cc1ccc2cccc(O)c2n1` the MIC was 1500 µM (Shigella dysenteriae; microbial growth, agar dilution).
For `O=C(C=Cc1ccc(O)c(O)c1)OC1CC(O)(C(=O)O)CC(OC(=O)C=Cc2ccc(O)c(O)c2)C1O` (stereo not drawn), the inhibition was 0% (Severe acute respiratory syndrome coronavirus 2; cytopathic effect; Vero C1008; 50 µM).
`N#Cc1ncn(COCCOCc2ccccc2)c1C#N` gave an IC50 of 10 µg/mL (Mammarenavirus lassaense; viral replication, inhibitor; Vero; 48 h).
For `NC(=O)c1ncn([C@@H]2O[C@H](CO)[C@@H](O)[C@H]2O)n1`, the Emax was 99.2 ± 0.94% (Lassa mammarenavirus; viral replication; Huh-7; concentration not given).
`COC(=O)c1ccccc1NC(=O)Cc1cn(OC)c2ccccc12` — result for “EC50 fold change”: 4.07 ± 0.08 fold (HIV-1; viral replication; RT K103N/V108I; relative to: wild type).
For `COc1ccc(C2=[N+]([O-])c3ccccc3N3CC(C)(C)CN=C23)cc1`, the MIC was 1 to 16 µg/mL (Clostridium perfringens).
For `O=S(=O)(O)c1c2ccccc2c(-c2c3nc(c(-c4c5ccccc5c(S(=O)(=O)O)c5ccccc45)c4ccc([nH]4)c(-c4c5ccccc5c(S(=O)(=O)O)c5ccccc45)c4nc(c(-c5c6ccccc6c(S(=O)(=O)O)c6ccccc56)c5ccc2[nH]5)C=C4)C=C3)c2ccccc12`, the EC50 was 0.15 ± 0.03 µg/mL (vaccinia virus; viral replication; BSC-40, Western Reserve).
`CC[C@H](C)[C@H](NC(C)=O)C(=O)N[C@@H](CO)C(=O)NCC(=O)N[C@H](C(=O)N[C@@H](CC(N)=O)C(=O)N[C@@H](C)C(=O)N[C@@H](CO)C(=O)N[C@H](C(=O)N[C@H](C(=O)N[C@@H](CCC(=O)O)C(=O)N[C@H](C(=O)N[C@@H](CCC(N)=O)C(=O)N[C@@H](CCCCN)C(=O)N[C@@H](CCC(=O)O)C(=O)N[C@H](C(=O)N[C@@H](CCC(=O)O)C(=O)N[C@@H](CCCNC(=N)N)C(=O)N[C@@H](CC(C)C)C(=O)N[C@@H](CC(N)=O)C(=O)N[C@@H](CCCCN)C(=O)N[C@H](C(=O)N[C@@H](C)C(=O)N[C@@H](CCCCN)C(=O)N[C@@H](CCC(=O)O)C(=O)N[C@@H](CC(C)C)C(=O)N[C@@H](CC(N)=O)C(=O)N[C@@H](CCCCN)C(=O)N[C@@H](CO)C(=O)N[C@@H](CC(C)C)C(=O)N[C@H](C(=O)N[C@@H](CC(=O)O)C(=O)N[C@@H](CC(C)C)C(=O)N[C@@H](CCC(N)=O)C(=O)N[C@@H](CCC(=O)O)C(=O)NCC(=O)NCC(=O)NCC(=O)N[C@@H](CO)C(=O)NCC(=O)NCC(=O)NCC(=O)N[C@@H](CSSC[C@H](NC(=O)CNC(=O)CNC(=O)CNC(=O)[C@H](CO)NC(=O)CNC(=O)CNC(=O)CNC(=O)[C@H](CCC(=O)O)NC(=O)[C@H](CCC(N)=O)NC(=O)[C@H](CC(C)C)NC(=O)[C@H](CC(=O)O)NC(=O)[C@@H](NC(=O)[C@H](CC(C)C)NC(=O)[C@H](CO)NC(=O)[C@H](CCCCN)NC(=O)[C@H](CC(N)=O)NC(=O)[C@H](CC(C)C)NC(=O)[C@H](CCC(=O)O)NC(=O)[C@H](CCCCN)NC(=O)[C@H](C)NC(=O)[C@@H](NC(=O)[C@H](CCCCN)NC(=O)[C@H](CC(N)=O)NC(=O)[C@H](CC(C)C)NC(=O)[C@H](CCCNC(=N)N)NC(=O)[C@H](CCC(=O)O)NC(=O)[C@@H](NC(=O)[C@H](CCC(=O)O)NC(=O)[C@H](CCCCN)NC(=O)[C@H](CCC(N)=O)NC(=O)[C@@H](NC(=O)[C@H](CCC(=O)O)NC(=O)[C@@H](NC(=O)[C@@H](NC(=O)[C@H](CO)NC(=O)[C@H](C)NC(=O)[C@H](CC(N)=O)NC(=O)[C@@H](NC(=O)CNC(=O)[C@H](CO)NC(=O)[C@@H](NC(C)=O)[C@@H](C)CC)[C@@H](C)CC)C(C)C)C(C)C)[C@@H](C)CC)[C@@H](C)CC)C(C)C)[C@@H](C)CC)C(N)=O)C(N)=O)[C@@H](C)CC)C(C)C)[C@@H](C)CC)[C@@H](C)CC)C(C)C)C(C)C)[C@@H](C)CC` — result for “fold change IC50 vs corresponding monomer”: 0.324 (SARS-CoV-2 Wuhan; viral replication; VeroE6/TMPRSS2 cells; relative to: corresponding monomer).
The IC50 of `O=C(O)c1ncn(CCO)c1C(=O)O` is reported as 4 µg/mL (Mammarenavirus lassaense; viral replication, inhibitor; Vero; 48 h).
With `CC[C@H](C)[C@H](NC(=O)[C@H](CCCCN)NC(=O)[C@H](CCCCN)NC(=O)[C@H](CC(C)C)NC(=O)[C@H](Cc1c[nH]c2ccccc12)NC(=O)CN)C(=O)NCC(=O)N[C@@H](CCCCN)C(=O)N[C@@H](CCCCN)C(=O)N[C@H](C(=O)N[C@@H](CCC(=O)O)C(=O)N[C@@H](CCCNC(=N)N)C(=O)N[C@H](C(=O)NCC(=O)N[C@@H](CCC(N)=O)C(=O)N[C@@H](Cc1c[nH]cn1)C(=O)N[C@H](C(=O)N[C@@H](CCCNC(=N)N)C(=O)N[C@@H](CC(=O)O)C(=O)N[C@@H](C)C(=O)N[C@H](C(=O)N[C@H](C(=O)N[C@@H](CCC(N)=O)C(=O)N[C@H](C(=O)N[C@H](C(=O)NCC(=O)N[C@H](C(=O)N[C@@H](C)C(=O)N[C@@H](CCC(N)=O)C(=O)N[C@@H](CCC(N)=O)C(=O)N[C@@H](C)C(=O)N[C@@H](C)C(=O)N[C@@H](CC(N)=O)C(=O)N[C@H](C(=O)N[C@@H](C)C(=O)N[C@@H](C)C(=O)N[C@H](C(=O)N[C@@H](CC(C)C)C(=O)N[C@@H](CCCCN)C(N)=O)[C@@H](C)O)C(C)C)C(C)C)[C@@H](C)CC)[C@@H](C)O)[C@@H](C)CC)[C@@H](C)O)[C@@H](C)O)C(C)C)[C@@H](C)CC` the MIC was 0.5 µg/mL (Escherichia coli; broth microdilution; RKI 131/03, CAMHB with 10% mouse serum).
For `[O-][N+]1=C(c2ccsc2)C2=NCCCN2c2ccccc21`, the MIC was 0.25 µg/mL (Clostridium butyricum).
With `CCCCCc1ccc(Oc2ccccc2)c(O)c1` the MIC90 was 0.0012 ± 0.0002 µg/mL (≈ 4.68 nM) (Francisella tularensis; bacterial growth; LVS).
The IC50 of `CN1CCN(C(=O)N[C@@H](Cc2ccccc2)C(=O)N[C@H](/C=C/S(=O)(=O)c2ccccc2)CCc2ccccc2)CC1` is reported as 1.14 ± 0.07 nM (Sudan ebolavirus; pseudovirus entry; HEK293T; SUDV).
The IC50 of `N#Cc1ncn(C2OC(CO)C(O)C2O)c1C#N` (stereo not drawn) is reported as > 50 µg/mL (Mammarenavirus lassaense; viral replication, inhibitor; Vero; 48 h).

A few entries again:
For `NC(=O)c1ncn([C@@H]2O[C@H](CO)[C@@H](O)[C@H]2O)n1`, the Emax was 99.2 ± 0.94% (Lassa mammarenavirus; viral replication; Huh-7; concentration not given).
The IC50 of `CN1CCN(C(=O)N[C@@H](Cc2ccccc2)C(=O)N[C@H](/C=C/S(=O)(=O)c2ccccc2)CCc2ccccc2)CC1` is reported as 1.14 ± 0.07 nM (Sudan ebolavirus; pseudovirus entry; HEK293T; SUDV).
